Measured values of several laboratories.
Lines come from different studies, so protocols differ. Numbers after ± are the reported error. In brackets after ≈: the same amount, converted by molar mass.

SMILES | tested on | test | system | setting | measurement | result
CN[C@@H]1[C@H](O)[C@H](NC)[C@H]2O[C@]3(O)[C@H](O[C@@H]2[C@H]1O)O[C@H](C)C[C@H]3NC(=O)Cc1ccccn1 | Mycobacterium tuberculosis |  |  |  | MIC | 3.2 µg/mL
Cc1cc(/C=C/C#N)cc(C)c1-n1cnc2cnc(Nc3ccc(C#N)cc3)nc21 | HIV-1 | viral replication, single-round infection | RT mutant K103N |  | EC50 | 0.0009 ± 0.0002 µM
CCCCCCCCCCCCCCCC(=O)N[C@@H](CCC(=O)NCCCC[C@H](NC(=O)[C@H](CC(=O)O)NC(=O)[C@H](CO)NC(=O)[C@@H](NC(=O)[C@H](Cc1ccccc1)NC(=O)[C@@H](NC(=O)CNC(=O)[C@H](CCC(N)=O)NC(=O)[C@H](C)NC(=O)[C@@H](Cc1ccc(O)cc1)NC(C)=O)[C@@H](C)O)[C@@H](C)O)C(=O)N[C@@H](CO)C(=O)N[C@@H](CCCCN)C(=O)N[C@@H](Cc1ccc(O)cc1)C(=O)N[C@@H](CC(C)C)C(=O)N[C@@H](CC(=O)O)C(=O)N[C@@H](CCC(=O)O)C(=O)N[C@@H](CCCNC(=N)N)C(=O)N[C@@H](C)C(=O)N[C@@H](C)C(=O)N[C@@H](CCC(N)=O)C(=O)N[C@@H](CC(=O)O)C(=O)N[C@@H](Cc1ccccc1)C(=O)N[C@H](C(=O)N[C@@H](CCC(N)=O)C(=O)N[C@@H](Cc1c[nH]c2ccccc12)C(=O)N[C@@H](CC(C)C)C(=O)N[C@@H](CC(C)C)C(=O)N[C@@H](CCC(=O)O)C(=O)NCC(=O)NCC(=O)N1CCC[C@H]1C(=O)N[C@@H](CO)C(=O)N[C@@H](CO)C(=O)NCC(=O)N[C@@H](C)C(=O)N1CCC[C@H]1C(=O)N1CCC[C@H]1C(=O)N1CCC[C@H]1C(=O)N[C@@H](CO)C(N)=O)C(C)C)C(=O)O |  |  | male cynomolgus monkey, plasma | subcutaneous, 0.0211 mg/kg | Tmax | 7 h
CC(C)c1cc(N)c2cc(NC(=O)C(=O)Nc3ccc4nc(C(C)C)cc(N)c4c3)ccc2n1 | Mycobacterium tuberculosis | resazurin | rel knockout | 168 h, nutrient-starved | IC50 | 4 µM
Cc1nc(=O)c2cc(CN(C)c3cccc(C(=O)N[C@@]4(C(=O)O)CCC[C@H](C(=O)O)C4)c3)ccc2[nH]1 | Mycobacterium tuberculosis |  | pptH knockout |  | MIC | 27 µM
CC[C@H](C)[C@H](NC(=O)[C@H](CCCCN)NC(=O)[C@H](CCCCN)NC(=O)[C@H](CC(C)C)NC(=O)[C@H](Cc1c[nH]c2ccccc12)NC(=O)CN)C(=O)NCC(=O)N[C@@H](CCCCN)C(=O)N[C@@H](CCCCN)C(=O)N[C@H](C(=O)N[C@@H](CCC(=O)O)C(=O)N[C@@H](CCCNC(=N)N)C(=O)N[C@H](C(=O)NCC(=O)N[C@@H](CCC(N)=O)C(=O)N[C@@H](Cc1c[nH]cn1)C(=O)N[C@H](C(=O)N[C@@H](CCCNC(=N)N)C(=O)N[C@@H](CC(=O)O)C(=O)N[C@@H](C)C(=O)N[C@H](C(=O)N[C@H](C(=O)N[C@@H](CCC(N)=O)C(=O)N[C@H](C(=O)N[C@H](C(=O)NCC(=O)N[C@H](C(=O)N[C@@H](C)C(=O)N[C@@H](CCC(N)=O)C(=O)N[C@@H](CCC(N)=O)C(=O)N[C@@H](C)C(=O)N[C@@H](C)C(=O)N[C@@H](CC(N)=O)C(=O)N[C@H](C(=O)N[C@@H](C)C(=O)N[C@@H](C)C(=O)N[C@H](C(=O)N[C@@H](CC(C)C)C(=O)N[C@@H](CCCCN)C(N)=O)[C@@H](C)O)C(C)C)C(C)C)[C@@H](C)CC)[C@@H](C)O)[C@@H](C)CC)[C@@H](C)O)[C@@H](C)O)C(C)C)[C@@H](C)CC | Enterococcus faecium |  | DSM 17050, CAMHB |  | MIC | > 1020 µg/mL
Fc1cccc(CN2CCN(c3ccccc3)CC2)c1OCC1CC1 | Mycobacterium tuberculosis | resazurin | rel knockout | 168 h, nutrient-starved | IC50 | > 64 µM
CNC1C(O)C(NC)C2OC3(O)C(OC(C)C[C@H]3NC(=O)Cc3ccc(F)cn3)OC2C1O.Cl.Cl (stereo partly drawn) | Mycobacterium tuberculosis |  | H37Rv Rv1258c knockout, 7H9 broth | 7 days | MIC | 3.1 µg/mL
CC[C@H](C)[C@H](NC(=O)[C@H](CO)NC(=O)[C@H](Cc1ccc(O)cc1)NC(=O)[C@H](CC(=O)O)NC(=O)[C@H](CO)NC(=O)[C@@H](NC(=O)[C@H](Cc1ccccc1)NC(=O)[C@@H](NC(=O)CNC(=O)[C@H](CCC(=O)O)NC(=O)[C@@H](C)NC(=O)[C@@H](N)Cc1ccc(O)cc1)[C@@H](C)O)[C@@H](C)CC)C(=O)N[C@@H](C)C(=O)N[C@@H](CCSC)C(=O)N[C@@H](CC(=O)O)C(=O)N[C@@H](CCCCN)C(=O)N[C@H](C(=O)N[C@@H](Cc1c[nH]cn1)C(=O)N[C@@H](CCC(N)=O)C(=O)N[C@@H](CCC(N)=O)C(=O)N[C@@H](CC(=O)O)C(=O)N[C@@H](Cc1ccccc1)C(=O)N[C@H](C(=O)N[C@@H](CC(N)=O)C(=O)N[C@@H](Cc1c[nH]c2ccccc12)C(=O)N[C@@H](CC(C)C)C(=O)N[C@@H](CC(C)C)C(=O)N[C@@H](C)C(=O)N[C@@H](CCC(N)=O)C(=O)N[C@@H](CCCCN)C(=O)N1CCC[C@H]1C(=O)N[C@@H](CO)C(=O)N[C@@H](CO)C(=O)NCC(=O)N[C@@H](C)C(=O)N1CCC[C@H]1C(=O)N1CCC[C@H]1C(=O)N1CCC[C@H]1C(=O)N[C@@H](CO)C(N)=O)C(C)C)[C@@H](C)CC |  |  | human plasma | 37 °C | stability time | ≥ 5 h
C#CCN(Cc1ccc2[nH]cnc(=O)c2c1)c1ccc(C(=O)N[C@@H](CCC(=O)O)C(=O)O)cc1 | Mycobacterium tuberculosis |  | pptH knockout |  | MIC | > 100 µM
CN[C@@H]1[C@H](O)[C@H](NC)[C@H]2O[C@]3(O)[C@H](O[C@@H]2[C@H]1O)O[C@H](C)C[C@H]3NC(=O)Cc1cc(Cl)ccn1 | Mycobacterium tuberculosis |  |  |  | MIC | 0.8 µg/mL
CC(C)(C)OC(=O)NCCC[C@H](NC(=O)c1ccc(NCc2ccc3nc(N)nc(N)c3c2Cl)cc1)C(=O)O | Mycobacterium tuberculosis |  | pptH knockout |  | MIC | < 0.2 µM
CCC1=NN2C(=N)C(=Cc3ccc(Sc4ccc(C)cc4)o3)C(=O)N=C2S1 | Mycobacterium tuberculosis | resazurin | rel knockout | 168 h, nutrient-starved | IC50 | 16 µM
COC(=O)[C@@H](CCCNC(=O)OC(C)(C)C)NC(=O)c1ccc(NCc2ccc3nc(N)nc(N)c3c2Cl)cc1 | Mycobacterium tuberculosis |  | pptH knockout |  | MIC | < 0.1 µM
CCCCCCCCCCCCCCCC(=O)N[C@@H](CCC(=O)NCCOCCOCCC(=O)NCCOCCOCCC(=O)NCCCC[C@H](NC(=O)[C@H](CC(=O)O)NC(=O)[C@H](CC(C)C)NC(=O)[C@H](Cc1ccc(O)cc1)NC(=O)[C@H](CCCCN)NC(=O)[C@H](CO)NC(=O)[C@H](Cc1ccc(O)cc1)NC(=O)[C@H](CC(=O)O)NC(=O)[C@H](CO)NC(=O)[C@@H](NC(=O)[C@H](Cc1ccccc1)NC(=O)[C@@H](NC(=O)CNC(=O)[C@H](CCC(N)=O)NC(=O)[C@@H](CO)NC(=O)[C@@H](N)Cc1c[nH]cn1)[C@@H](C)O)[C@@H](C)O)C(=O)N[C@@H](CCCNC(=N)N)C(=O)N[C@@H](CCCNC(=N)N)C(=O)N[C@@H](C)C(=O)N[C@@H](CCC(N)=O)C(=O)N[C@@H](CC(=O)O)C(=O)N[C@@H](Cc1ccccc1)C(=O)N[C@H](C(=O)N[C@@H](CCC(N)=O)C(=O)N[C@@H](Cc1c[nH]c2ccccc12)C(=O)N[C@@H](CC(C)C)C(=O)N[C@@H](CC(C)C)C(=O)N[C@@H](CC(N)=O)C(=O)N[C@H](C(=O)NCC(=O)NCC(=O)N1CCC[C@H]1C(=O)N[C@@H](CO)C(=O)N[C@@H](CO)C(=O)NCC(=O)N[C@@H](C)C(=O)N1CCC[C@H]1C(=O)N1CCC[C@H]1C(=O)N1CCC[C@H]1C(=O)N[C@@H](CO)C(N)=O)[C@@H](C)O)C(C)C)C(=O)O |  | item: ALP | rhesus monkey, female | subcutaneous, 20 µg/kg once daily, 28 days | serum enzyme activity | 329 ± 105 U/L
C=CCNC(=O)N1Cc2ccc(NC(=O)NC3CC3c3ccccc3)cc2C1 (stereo not drawn) | Mycobacterium tuberculosis | resazurin | rel knockout | 168 h, nutrient-starved | IC50 | > 64 µM
CC[C@H](C)[C@@H]([C@@H](CC(=O)N1CCC[C@H]1[C@H](OC)[C@@H](C)C(=O)N[C@H](C)[C@@H](O)c1ccccc1)OC)N(C)C(=O)[C@@H](NC(=O)[C@H](C(C)C)N(C)C(=O)OCc1ccc(NC(=O)[C@H](CCCNC(N)=O)NC(=O)[C@@H](NC(=O)CCCC(=O)NCCC(=O)N(C)CC(=O)N(C)CC(=O)N(C)CC(=O)N(C)CC(=O)N(C)CC(=O)N(C)CC(=O)N(C)CC(=O)N(C)CC(=O)N(C)CC(=O)N(C)CC(=O)N[C@H]2CSCCC(=O)N3CN4CN(C3)C(=O)CCSC[C@H](NC(=O)[C@@H](CC(=O)O)NC(=O)[C@H](Cc3cccc5ccccc35)NC(=O)[C@@H]3CCCN3C2=O)C(=O)N[C@@H](CCSC)C(=O)N[C@@H](CCCCNC(=N)N)C(=O)N[C@@H](CC(=O)O)C(=O)N[C@@H](Cc2c[nH]c3ccccc23)C(=O)N[C@@H](CO)C(=O)N[C@@H]([C@@H](C)O)C(=O)N2CCC[C@H]2C(=O)N2C[C@H](O)C[C@H]2C(=O)N[C@@H](Cc2c[nH]c3ccccc23)C(=O)N[C@H](C(N)=O)CSCCC4=O)C(C)C)cc1)C(C)C |  |  | aqueous buffer | pH 7.4 | solubility | 800 µg/mL (≈ 192 µM)
CNC1C(O)C(NC)C2OC3(O)C(OC(C)C[C@H]3NC(=O)Cc3cscn3)OC2C1O.Cl.Cl (stereo partly drawn) | Mycobacterium tuberculosis |  | H37Rv Rv1258c knockout, 7H9 broth | 7 days | MIC | 6.3 µg/mL
